Measured values from different studies.
Each numbered part is a random draw from the data of one study; scales do not carry over between parts. Values joined by “and” are separate records of one study, mostly repeats; a detail may differ. Values after ≈ are worked out from the molar mass of the structure shown.
UniProt Q16832, sequence (whole entry, looked up): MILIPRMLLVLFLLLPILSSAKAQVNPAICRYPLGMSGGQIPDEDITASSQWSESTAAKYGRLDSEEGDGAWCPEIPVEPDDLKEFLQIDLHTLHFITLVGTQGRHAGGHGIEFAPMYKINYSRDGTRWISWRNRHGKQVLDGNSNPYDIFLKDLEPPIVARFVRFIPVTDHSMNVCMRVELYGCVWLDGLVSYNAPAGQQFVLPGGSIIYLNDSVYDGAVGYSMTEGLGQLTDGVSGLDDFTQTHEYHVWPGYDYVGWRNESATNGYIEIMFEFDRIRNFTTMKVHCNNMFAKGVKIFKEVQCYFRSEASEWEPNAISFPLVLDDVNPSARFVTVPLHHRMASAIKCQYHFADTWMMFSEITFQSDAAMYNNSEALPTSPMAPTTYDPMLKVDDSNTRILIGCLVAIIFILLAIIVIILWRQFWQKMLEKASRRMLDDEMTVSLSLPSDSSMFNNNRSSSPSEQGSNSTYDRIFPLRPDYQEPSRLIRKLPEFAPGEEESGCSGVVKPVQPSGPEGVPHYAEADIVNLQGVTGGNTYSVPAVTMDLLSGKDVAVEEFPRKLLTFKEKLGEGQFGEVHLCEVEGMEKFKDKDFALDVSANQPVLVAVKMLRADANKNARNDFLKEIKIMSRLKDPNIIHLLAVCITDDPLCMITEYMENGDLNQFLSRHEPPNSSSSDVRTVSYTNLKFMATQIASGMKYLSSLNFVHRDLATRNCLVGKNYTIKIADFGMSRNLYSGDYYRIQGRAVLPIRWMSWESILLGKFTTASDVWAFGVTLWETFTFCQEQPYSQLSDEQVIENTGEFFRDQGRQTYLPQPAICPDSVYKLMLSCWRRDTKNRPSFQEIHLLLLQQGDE
UniProt O96013, sequence (whole entry, looked up): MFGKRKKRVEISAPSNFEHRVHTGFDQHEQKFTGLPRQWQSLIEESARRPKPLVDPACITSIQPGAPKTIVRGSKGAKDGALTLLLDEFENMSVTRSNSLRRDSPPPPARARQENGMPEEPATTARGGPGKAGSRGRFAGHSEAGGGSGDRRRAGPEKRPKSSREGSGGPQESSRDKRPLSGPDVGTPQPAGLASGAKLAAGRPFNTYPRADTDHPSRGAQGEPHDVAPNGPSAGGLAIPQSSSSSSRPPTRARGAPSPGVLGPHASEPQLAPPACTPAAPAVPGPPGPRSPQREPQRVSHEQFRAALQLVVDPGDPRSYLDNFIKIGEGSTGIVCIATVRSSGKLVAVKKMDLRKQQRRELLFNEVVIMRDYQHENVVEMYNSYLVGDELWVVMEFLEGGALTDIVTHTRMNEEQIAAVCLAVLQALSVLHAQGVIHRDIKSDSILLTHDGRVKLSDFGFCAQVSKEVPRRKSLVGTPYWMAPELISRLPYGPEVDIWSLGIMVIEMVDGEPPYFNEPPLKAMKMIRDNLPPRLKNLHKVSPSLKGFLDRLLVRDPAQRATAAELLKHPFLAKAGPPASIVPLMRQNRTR
UniProt Q13464, sequence (whole entry, looked up): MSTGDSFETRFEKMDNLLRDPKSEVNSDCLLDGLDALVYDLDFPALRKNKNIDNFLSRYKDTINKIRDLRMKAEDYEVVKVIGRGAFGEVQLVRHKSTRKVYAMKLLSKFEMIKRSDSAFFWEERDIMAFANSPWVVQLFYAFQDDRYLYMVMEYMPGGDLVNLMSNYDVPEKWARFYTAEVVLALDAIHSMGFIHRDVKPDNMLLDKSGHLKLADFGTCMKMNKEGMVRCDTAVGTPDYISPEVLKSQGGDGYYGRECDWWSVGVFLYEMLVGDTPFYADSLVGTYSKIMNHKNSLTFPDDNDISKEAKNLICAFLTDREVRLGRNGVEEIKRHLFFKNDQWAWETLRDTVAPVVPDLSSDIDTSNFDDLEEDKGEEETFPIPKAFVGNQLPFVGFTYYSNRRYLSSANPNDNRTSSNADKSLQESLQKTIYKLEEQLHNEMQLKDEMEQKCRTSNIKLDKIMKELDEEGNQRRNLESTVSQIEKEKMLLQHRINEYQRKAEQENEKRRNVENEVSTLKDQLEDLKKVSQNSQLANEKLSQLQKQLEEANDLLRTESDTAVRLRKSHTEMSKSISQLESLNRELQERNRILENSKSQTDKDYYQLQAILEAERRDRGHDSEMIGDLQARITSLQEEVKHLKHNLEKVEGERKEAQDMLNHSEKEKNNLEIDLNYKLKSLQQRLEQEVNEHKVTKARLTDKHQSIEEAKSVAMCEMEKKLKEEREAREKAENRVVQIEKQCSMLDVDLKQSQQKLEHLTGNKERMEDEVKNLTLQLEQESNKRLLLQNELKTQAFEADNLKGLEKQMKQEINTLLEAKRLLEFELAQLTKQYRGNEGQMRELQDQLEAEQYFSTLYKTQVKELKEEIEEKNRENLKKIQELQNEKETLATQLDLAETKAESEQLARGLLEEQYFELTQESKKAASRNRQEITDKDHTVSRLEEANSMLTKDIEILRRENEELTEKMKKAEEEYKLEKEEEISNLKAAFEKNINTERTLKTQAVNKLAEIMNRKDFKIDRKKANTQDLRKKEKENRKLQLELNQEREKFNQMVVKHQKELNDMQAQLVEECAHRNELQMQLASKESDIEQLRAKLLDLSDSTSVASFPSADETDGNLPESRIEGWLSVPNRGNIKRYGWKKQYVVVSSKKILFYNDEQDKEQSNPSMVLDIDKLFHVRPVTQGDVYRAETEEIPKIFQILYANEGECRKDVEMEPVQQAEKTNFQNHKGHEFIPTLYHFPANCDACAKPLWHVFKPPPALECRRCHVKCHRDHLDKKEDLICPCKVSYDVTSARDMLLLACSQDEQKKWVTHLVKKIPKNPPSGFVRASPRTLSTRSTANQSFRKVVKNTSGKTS
UniProt O00141, sequence (whole entry, looked up): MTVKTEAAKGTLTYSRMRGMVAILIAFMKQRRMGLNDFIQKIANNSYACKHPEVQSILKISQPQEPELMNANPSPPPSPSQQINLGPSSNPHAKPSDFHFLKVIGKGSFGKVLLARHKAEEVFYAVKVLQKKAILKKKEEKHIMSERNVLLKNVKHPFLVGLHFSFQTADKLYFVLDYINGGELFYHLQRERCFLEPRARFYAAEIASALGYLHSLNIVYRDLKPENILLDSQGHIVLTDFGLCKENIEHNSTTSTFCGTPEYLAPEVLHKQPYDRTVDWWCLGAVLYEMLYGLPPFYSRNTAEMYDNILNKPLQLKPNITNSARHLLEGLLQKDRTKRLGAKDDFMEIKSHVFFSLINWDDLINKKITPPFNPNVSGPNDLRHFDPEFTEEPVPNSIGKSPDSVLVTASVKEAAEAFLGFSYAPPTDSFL

Block 1
SMILES: CN1CCC[C@H]1COc1nc2c(c(N3CCN(C(=O)C4CC4)[C@@H](CC#N)C3)n1)CCN(c1cccc3cccc(Cl)c13)C2
Read-out: binding
Action: competitor
Technique: NanoBRET
Cell line: HEK293
KRAS G13D: GTPase KRas (KRAS, Homo sapiens, UniProt P01116, G13D)
KRAS G12D: GTPase KRas (KRAS, Homo sapiens, UniProt P01116, G12D)
KRAS Q61R: GTPase KRas (KRAS, Homo sapiens, UniProt P01116, Q61R)
For KRAS G13D; 412 nM: normalized BRET read 80.8% and 80% and 89.7%.
It gave 98.5% and 108% for normalized BRET (KRAS G12D; 1.69 nM).
It gave 102% and 89.1% and 97.5% for normalized BRET (KRAS Q61R; 15.2 nM).
For KRAS Q61R; 1.24 µM: normalized BRET read 95.8% and 75.2% and 87%.
It gave 92.9% and 100% and 95.6% for normalized BRET (KRAS G13D; 15.2 nM).
It gave 82.3% and 99.1% and 90.5% for normalized BRET (KRAS G12D; 3.7 µM).
It gave 92.7% and 84.1% and 86.2% for normalized BRET (GTPase KRas (KRAS, Homo sapiens, UniProt P01116, Q61H); 412 nM).
The normalized BRET was 97.3% and 90% and 98.8% (KRAS Q61R; 137 nM).

Block 2
Compound: COc1cc(-c2nc3ccc(C(=O)NCCCN4CCN(c5cccc(C)c5C)CC4)cc3n2C2CCC2)cc(OC)c1OC
Tested at: 1 µM
For CDC42BPG (Homo sapiens, UniProt Q6DT37); KINOMEscan; baseline: control: remaining binding read 93%.
For Tyrosine-protein kinase ABL1, non-phosphorylated (ABL1, Homo sapiens, UniProt P00519); binding, competition with immobilised ligand: remaining binding read 83%.
It gave 83% for remaining binding (DDR2 (Homo sapiens, UniProt Q16832); binding, competition with immobilised ligand).
For IKBKB (Homo sapiens, UniProt O14920); binding, competition with immobilised ligand: remaining binding read 91%.
ROCK1 (Homo sapiens, UniProt Q13464); binding, competition with immobilised ligand — remaining binding: 82%.
PAK4 (Homo sapiens, UniProt O96013); binding, competition with immobilised ligand — remaining binding: 93%.
The remaining binding was 88% (SGK1 (Homo sapiens, UniProt O00141); binding, competition with immobilised ligand).
For MAP3K20 (Homo sapiens, UniProt Q9NYL2); binding, competition with immobilised ligand: remaining binding read 91%.

Block 3
Structure (SMILES): Cn1cc(-c2cccc(CN3CCC4(CC3)COc3c4ccc4c3CN([C@H]3CCC(=O)NC3=O)C4=O)c2)cn1
Target: Voltage-gated inwardly rectifying potassium channel KCNH2 (KCNH2, Homo sapiens, UniProt Q12809)
UniProt Q12809, sequence (whole entry, looked up): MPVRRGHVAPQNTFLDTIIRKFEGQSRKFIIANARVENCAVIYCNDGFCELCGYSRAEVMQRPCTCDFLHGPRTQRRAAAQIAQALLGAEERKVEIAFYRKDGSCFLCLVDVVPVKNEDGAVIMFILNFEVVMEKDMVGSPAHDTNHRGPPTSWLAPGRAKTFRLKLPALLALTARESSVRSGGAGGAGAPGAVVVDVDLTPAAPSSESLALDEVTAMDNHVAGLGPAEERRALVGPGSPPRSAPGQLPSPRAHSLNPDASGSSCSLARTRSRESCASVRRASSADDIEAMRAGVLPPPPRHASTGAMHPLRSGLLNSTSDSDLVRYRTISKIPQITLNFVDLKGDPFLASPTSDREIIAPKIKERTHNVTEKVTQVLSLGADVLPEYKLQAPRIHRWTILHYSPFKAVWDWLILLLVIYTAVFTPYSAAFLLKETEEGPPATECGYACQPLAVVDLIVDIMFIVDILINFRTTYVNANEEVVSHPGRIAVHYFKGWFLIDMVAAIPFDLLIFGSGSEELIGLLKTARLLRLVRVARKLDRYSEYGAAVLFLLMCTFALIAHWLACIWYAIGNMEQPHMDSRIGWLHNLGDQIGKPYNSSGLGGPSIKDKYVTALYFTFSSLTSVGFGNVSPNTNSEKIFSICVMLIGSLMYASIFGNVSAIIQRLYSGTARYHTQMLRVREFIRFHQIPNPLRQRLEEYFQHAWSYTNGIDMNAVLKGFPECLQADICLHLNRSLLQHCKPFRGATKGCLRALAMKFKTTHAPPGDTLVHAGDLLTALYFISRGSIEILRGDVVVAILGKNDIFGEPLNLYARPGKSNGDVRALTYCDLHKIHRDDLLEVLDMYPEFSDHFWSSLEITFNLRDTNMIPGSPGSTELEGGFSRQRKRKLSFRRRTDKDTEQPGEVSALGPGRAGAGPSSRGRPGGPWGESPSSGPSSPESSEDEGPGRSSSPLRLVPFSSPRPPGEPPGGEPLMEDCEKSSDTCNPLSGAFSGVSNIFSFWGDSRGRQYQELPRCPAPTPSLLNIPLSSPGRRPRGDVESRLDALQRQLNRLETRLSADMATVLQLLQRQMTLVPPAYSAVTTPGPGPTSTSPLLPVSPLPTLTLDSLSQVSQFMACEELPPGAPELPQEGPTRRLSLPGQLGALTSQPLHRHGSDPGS
Technique: manual patch clamp
It gave 18.9% for inhibition (hERG current; 9.95 µM).
For potassium current; 100 µM, cloudy working solution: inhibition read 65.3% and 73.2%.
The inhibition was 43.4% (hERG current; 32.25 µM).
potassium current; 88.62 µM — inhibition: 65.3% and 73.2%.

Mixed results
With `CCCCC[C@@H]1CC(=O)N[C@@H](C(C)C)C(=O)N[C@H](CCCNC(=N)N)C(=O)N[C@@H](CO)C(=O)NCC(=O)N(C)[C@H](Cc2ccccc2)C(=O)N[C@@H](CC(C)C)C(=O)N[C@H](CCCNC(=N)N)C(=O)N[C@@H](CC(N)=O)C(=O)N[C@H](C(C)C)C(=O)N[C@H](Cc2c[nH]c3ccccc23)C(=O)NCCCC(=O)O1` the MIC was 4 µg/mL (≈ 2.75 µM) (Staphylococcus aureus; USA300; together with: ubiquinone 4 µg/mL).
For `Cc1ccc(O)c(C)c1-c1cnc2[nH]c(-c3cnc(N4CCC(CN5CCN(c6ccc(C(=O)NC7CCC(=O)NC7=O)c(F)c6)CC5)CC4)nc3)cc2c1C#N` (racemic), “pCDK1 (Thr14) level” read 113% and 122% (HCC1569; in-cell western, refers to: CDK1 phospho-Thr14; 1111.11 nM).

A few entries again (block 1):
It gave 102% and 89.1% and 97.5% for normalized BRET (KRAS Q61R; 15.2 nM).
It gave 92.7% and 84.1% and 86.2% for normalized BRET (GTPase KRas (KRAS, Homo sapiens, UniProt P01116, Q61H); 412 nM).
